Assay results gathered from unrelated publications.
Lines come from different studies, so protocols differ. Values joined by “and” are separate records of one study, mostly repeats; a detail may differ. Numbers after ± are the reported error.
ESR2: Estrogen receptor beta (ESR2, Homo sapiens, UniProt Q92731)
UniProt Q92731, sequence (whole entry, looked up): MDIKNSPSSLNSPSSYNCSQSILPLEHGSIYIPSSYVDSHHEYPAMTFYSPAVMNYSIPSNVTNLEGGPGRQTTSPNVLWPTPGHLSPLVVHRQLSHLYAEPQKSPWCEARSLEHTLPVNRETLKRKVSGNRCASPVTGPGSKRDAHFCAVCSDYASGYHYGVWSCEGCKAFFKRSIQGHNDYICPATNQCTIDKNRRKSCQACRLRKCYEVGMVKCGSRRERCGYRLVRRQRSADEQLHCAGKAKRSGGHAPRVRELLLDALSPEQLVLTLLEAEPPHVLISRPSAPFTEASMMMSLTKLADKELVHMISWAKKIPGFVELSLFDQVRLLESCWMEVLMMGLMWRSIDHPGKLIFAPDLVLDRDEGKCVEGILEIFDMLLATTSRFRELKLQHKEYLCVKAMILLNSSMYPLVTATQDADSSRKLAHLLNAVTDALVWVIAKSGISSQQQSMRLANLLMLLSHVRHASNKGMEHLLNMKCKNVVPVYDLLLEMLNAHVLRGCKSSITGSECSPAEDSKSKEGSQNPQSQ
CHRM1: Muscarinic acetylcholine receptor M1 (CHRM1, Homo sapiens, UniProt P11229)
UniProt P11229, sequence (whole entry, looked up): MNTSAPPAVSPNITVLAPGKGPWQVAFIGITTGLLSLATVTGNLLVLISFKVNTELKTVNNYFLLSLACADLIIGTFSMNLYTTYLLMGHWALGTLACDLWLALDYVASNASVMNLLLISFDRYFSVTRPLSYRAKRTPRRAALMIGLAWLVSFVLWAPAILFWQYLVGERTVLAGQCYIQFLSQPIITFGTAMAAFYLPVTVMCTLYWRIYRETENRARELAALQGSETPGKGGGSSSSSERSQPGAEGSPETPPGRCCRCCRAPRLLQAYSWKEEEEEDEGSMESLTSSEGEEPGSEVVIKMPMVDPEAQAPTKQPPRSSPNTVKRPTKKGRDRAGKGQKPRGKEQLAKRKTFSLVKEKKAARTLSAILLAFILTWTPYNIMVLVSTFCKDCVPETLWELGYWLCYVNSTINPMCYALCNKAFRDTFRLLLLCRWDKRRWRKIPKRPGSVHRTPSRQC
CHRM4: Muscarinic acetylcholine receptor M4 (CHRM4, Homo sapiens, UniProt P08173)
UniProt P08173, sequence (whole entry, looked up): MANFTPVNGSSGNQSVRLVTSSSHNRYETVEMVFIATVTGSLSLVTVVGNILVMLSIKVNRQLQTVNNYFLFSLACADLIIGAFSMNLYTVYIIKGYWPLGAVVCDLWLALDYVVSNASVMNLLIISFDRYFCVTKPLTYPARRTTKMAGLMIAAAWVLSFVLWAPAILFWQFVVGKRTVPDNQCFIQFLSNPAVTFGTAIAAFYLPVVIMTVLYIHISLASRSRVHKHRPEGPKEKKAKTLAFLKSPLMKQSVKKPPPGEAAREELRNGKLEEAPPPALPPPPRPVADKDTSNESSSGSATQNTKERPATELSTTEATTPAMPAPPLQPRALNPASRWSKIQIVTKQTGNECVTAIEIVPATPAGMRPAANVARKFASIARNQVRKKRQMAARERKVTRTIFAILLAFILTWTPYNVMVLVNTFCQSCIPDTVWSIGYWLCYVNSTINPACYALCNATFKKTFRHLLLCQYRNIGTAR
SCN10A: Sodium channel protein type 10 subunit alpha (SCN10A, Homo sapiens, UniProt Q9Y5Y9)
UniProt Q9Y5Y9, sequence (whole entry, looked up): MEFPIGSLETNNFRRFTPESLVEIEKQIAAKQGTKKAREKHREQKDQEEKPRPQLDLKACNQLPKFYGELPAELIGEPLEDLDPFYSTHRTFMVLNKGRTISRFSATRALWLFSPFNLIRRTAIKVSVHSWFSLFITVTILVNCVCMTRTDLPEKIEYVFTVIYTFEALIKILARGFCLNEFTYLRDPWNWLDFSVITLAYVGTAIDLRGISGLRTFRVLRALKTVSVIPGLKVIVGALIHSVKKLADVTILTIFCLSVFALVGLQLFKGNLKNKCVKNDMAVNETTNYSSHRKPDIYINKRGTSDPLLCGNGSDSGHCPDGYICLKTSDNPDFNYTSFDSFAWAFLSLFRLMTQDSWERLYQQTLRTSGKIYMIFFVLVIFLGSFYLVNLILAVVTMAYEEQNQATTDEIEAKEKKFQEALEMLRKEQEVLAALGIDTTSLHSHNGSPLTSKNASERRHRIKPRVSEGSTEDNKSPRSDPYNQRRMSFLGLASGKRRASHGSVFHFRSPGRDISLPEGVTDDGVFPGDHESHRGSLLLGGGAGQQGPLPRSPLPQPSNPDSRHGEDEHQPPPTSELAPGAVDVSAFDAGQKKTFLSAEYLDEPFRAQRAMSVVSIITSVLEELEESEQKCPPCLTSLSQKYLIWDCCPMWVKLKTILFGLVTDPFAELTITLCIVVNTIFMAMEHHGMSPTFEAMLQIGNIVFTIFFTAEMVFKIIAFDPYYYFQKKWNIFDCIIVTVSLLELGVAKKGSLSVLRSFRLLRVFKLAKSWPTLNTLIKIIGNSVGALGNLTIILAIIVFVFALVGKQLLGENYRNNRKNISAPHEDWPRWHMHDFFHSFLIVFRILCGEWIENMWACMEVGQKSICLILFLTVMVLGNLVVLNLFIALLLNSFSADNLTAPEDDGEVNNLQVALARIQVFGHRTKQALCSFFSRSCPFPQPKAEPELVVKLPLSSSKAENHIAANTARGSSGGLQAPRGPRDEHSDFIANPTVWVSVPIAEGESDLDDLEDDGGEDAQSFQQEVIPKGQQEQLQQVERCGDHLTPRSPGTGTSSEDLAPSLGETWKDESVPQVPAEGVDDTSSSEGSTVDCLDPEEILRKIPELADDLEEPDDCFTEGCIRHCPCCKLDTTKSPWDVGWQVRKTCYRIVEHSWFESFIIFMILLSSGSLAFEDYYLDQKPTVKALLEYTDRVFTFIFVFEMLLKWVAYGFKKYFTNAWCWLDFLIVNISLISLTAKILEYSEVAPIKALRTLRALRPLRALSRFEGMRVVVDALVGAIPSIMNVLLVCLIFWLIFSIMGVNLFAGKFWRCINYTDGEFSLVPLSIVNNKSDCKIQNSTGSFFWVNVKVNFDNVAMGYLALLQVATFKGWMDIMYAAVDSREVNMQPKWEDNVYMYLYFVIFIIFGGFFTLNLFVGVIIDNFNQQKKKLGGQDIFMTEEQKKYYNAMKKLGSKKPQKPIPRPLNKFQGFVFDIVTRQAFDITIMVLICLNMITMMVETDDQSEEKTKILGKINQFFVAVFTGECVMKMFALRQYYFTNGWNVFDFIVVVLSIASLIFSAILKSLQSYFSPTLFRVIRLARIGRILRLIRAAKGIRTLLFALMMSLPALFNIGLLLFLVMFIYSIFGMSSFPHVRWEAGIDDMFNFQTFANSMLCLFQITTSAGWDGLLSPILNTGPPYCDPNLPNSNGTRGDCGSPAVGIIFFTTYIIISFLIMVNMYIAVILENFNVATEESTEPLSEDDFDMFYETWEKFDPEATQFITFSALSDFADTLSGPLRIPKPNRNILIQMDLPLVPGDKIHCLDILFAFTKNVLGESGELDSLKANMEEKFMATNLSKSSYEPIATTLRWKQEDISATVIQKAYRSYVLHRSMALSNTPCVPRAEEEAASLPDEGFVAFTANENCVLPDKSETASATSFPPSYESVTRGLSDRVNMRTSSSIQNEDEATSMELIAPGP
T1: c-di-GMP riboswitch (Clostridium acetobutylicum); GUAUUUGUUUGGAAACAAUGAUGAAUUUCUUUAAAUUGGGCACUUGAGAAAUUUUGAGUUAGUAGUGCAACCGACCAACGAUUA
UniProt P14780, sequence (whole entry, looked up): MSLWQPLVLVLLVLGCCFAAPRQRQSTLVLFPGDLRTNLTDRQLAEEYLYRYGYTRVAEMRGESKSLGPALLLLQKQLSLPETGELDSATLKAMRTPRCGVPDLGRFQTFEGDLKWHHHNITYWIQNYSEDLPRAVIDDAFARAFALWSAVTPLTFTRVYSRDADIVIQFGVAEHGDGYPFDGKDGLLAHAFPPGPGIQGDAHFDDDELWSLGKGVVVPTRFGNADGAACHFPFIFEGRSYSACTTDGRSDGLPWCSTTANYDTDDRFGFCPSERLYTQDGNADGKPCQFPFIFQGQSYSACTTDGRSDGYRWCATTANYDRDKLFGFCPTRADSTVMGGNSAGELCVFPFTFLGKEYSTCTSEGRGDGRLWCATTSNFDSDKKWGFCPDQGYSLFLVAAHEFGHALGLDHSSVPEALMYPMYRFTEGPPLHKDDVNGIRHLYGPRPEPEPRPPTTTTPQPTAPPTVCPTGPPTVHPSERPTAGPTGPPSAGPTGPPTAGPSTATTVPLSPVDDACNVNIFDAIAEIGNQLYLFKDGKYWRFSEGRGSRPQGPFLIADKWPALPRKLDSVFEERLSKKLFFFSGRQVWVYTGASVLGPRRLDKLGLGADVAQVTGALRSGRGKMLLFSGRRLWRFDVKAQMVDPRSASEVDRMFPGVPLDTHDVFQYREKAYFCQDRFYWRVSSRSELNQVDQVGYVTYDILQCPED
UniProt Q21974, sequence (whole entry, unmodified, looked up): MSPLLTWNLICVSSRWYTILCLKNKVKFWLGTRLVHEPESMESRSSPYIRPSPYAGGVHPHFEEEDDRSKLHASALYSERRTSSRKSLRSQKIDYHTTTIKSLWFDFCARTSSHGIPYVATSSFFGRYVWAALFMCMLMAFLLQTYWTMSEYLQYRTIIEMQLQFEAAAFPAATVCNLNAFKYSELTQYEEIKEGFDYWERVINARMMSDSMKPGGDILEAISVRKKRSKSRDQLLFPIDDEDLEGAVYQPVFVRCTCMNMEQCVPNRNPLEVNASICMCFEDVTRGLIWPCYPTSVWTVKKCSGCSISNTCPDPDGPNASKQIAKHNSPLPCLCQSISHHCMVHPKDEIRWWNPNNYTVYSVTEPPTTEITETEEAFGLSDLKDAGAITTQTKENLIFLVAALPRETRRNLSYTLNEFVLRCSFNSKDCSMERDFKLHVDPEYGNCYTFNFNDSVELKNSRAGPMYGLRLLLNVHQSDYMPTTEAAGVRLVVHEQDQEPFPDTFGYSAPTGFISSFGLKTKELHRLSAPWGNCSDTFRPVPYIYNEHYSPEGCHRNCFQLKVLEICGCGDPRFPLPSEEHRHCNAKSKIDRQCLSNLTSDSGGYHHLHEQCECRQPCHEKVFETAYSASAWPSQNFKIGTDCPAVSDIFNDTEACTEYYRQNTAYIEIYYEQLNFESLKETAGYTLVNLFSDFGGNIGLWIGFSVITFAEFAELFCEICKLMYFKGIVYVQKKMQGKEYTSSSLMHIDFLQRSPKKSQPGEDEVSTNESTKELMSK

For `O=C(O)[C@H]1O[C@@H](O[C@H]2c3cc4ccc5cccc6c7ccccc7c(c3C=C[C@@H]2O)c4c56)[C@H](O)[C@@H](O)[C@@H]1O` (relative stereo), the kcat was 0.0011 ± 0.000117 s⁻¹ (UGT2B7 (Homo sapiens, UniProt P16662); glucuronidation, substrate; UGT-expressing HEK293 homogenate; normalized to UGT expression).
For `O=S(=O)(C1CC2OC1C(c1ccc(O)cc1)=C2c1ccc(O)cc1)N(CC(F)(F)F)c1ccc(Cl)cc1` (stereo not drawn), the efficacy was 7 ± 2% (ESR2; reporter gene, antagonist; HepG2; with: estradiol 10 nM; baseline: E2 response, negative is inverse agonism).
Under “change in baseline activity”, `CN(C)C(=O)c1ccc(COc2ccccc2-c2cc(=O)n(C3CCCCC3O)cn2)cc1` (stereo not drawn) is recorded as 38 ± 2.4 (CHRM1; allosteric agonist, IP1 accumulation; CHO-M1 cells; 10 µM, unit not given; baseline: maximum ACh response).
For `CCCCCCNc1nc2c(N)ncnc2n1[C@@H]1O[C@@H]2COP(=O)(O)OC2[C@@H]1O` (stereo partly drawn), the selectivity ratio was 0.3 (cAMP-dependent protein kinase type II-beta regulatory subunit, holoenzyme with catalytic subunit (Prkar2b, Rattus norvegicus, UniProt P12369, S112A); PKA holoenzyme activation, activator, fluorescence anisotropy; baseline: RIIβ over RIα, higher = RIIβ-selective).
`CCCCCCCCCCCCCCCC(=O)N[C@@H](CCC(=O)NCCCC[C@H](NC(=O)[C@H](C)NC(=O)[C@H](Cc1ccc(O)cc1)NC(=O)[C@H](CCC(N)=O)NC(=O)[C@H](C)NC(=O)[C@H](CCSC)NC(=O)[C@H](CCC(N)=O)NC(=O)[C@H](CCC(=O)O)NC(=O)[C@@H]1CCCN1C(=O)[C@@H](NC(=O)[C@H](C)NC(=O)[C@H](CC(N)=O)NC(=O)[C@H](CC(=O)O)NC(=O)CNC(=O)[C@@H]1CCCN1C(=O)[C@H](Cc1ccc(O)cc1)NC(=O)[C@@H](NC(=O)[C@@H]1CCCN1C(=O)[C@H](CCC(=O)O)NC(=O)[C@H](CC(C)C)NC(=O)[C@@H]1CCCN1C(=O)[C@H](C)NC(=O)c1ccc2c(c1)C(=O)OC21c2ccc(O)cc2Oc2cc(O)ccc21)C(C)C)[C@@H](C)O)C(=O)N[C@@H](CC(=O)O)C(=O)N[C@@H](CC(C)C)C(=O)N[C@@H](CCCNC(=N)N)C(=O)N[C@@H](CCCNC(=N)N)C(=O)N[C@@H](Cc1ccc(O)cc1)C(=O)N[C@H](C(=O)N[C@@H](CC(N)=O)C(=O)N[C@@H](CCSC)C(=O)N[C@@H](CC(C)C)C(=O)N[C@H](C(=O)N[C@@H](CCCNC(=N)N)C(=O)N1CCC[C@H]1C(=O)N[C@@H](CCCNC(=N)N)C(=O)N[C@@H](Cc1ccc(O)cc1)C(N)=O)[C@@H](C)O)[C@@H](C)CC)C(=O)O` gave a specific binding of 84% (NPY4R (Homo sapiens, UniProt P50391); radioligand displacement; COS-7 transiently expressing; 1 µM, 90 min, room temperature, with: [3H]-hPP 1 nM; baseline: total binding).
`C=CC(C)(C)c1cc(C(=O)c2c(-c3cc(-c4cc5cc(C(C)(C)C=C)c(O)cc5oc4=O)c(O)cc3O)oc3cc(O)ccc23)c(O)cc1O`: “concentration doubling activity” 7.4 µM (quinone reductase; inducer; Hepa1c1c7).
Under “change in baseline activity”, `CCCCn1cc(-c2ccc(COc3ccccc3-c3cc(=O)n(C4CCCCC4O)cn3)cc2)cn1` (stereo not drawn) is recorded as 68.5 ± 2.7 (CHRM1; allosteric agonist, IP1 accumulation; CHO-M1 cells; 10 µM, unit not given; baseline: maximum ACh response).
With `COc1ccc(C(C)=O)c(OCc2cn(Cc3cc(=O)c(O)co3)nn2)c1` the Kis was 0.849 µM (PPO3 (Agaricus bisporus, UniProt C7FF04); inhibitor, Lineweaver-Burk replot; mushroom; with: L-DOPA substrate).
Under activity, `CCCCC1CC1C(=O)Nc1nc2c(OC)ccc(C)c2s1` (stereo not drawn) is recorded as “inactive” (CHRM4; calcium mobilization, positive allosteric modulator; CHO expressing hM4 and Gqi5; concentration not given, with: acetylcholine EC20).
For `COC(=O)c1scc(C)c1NC(=O)C(C)N1CCN(CC2CC2)CC1` (stereo not drawn), “capacity factor k′” read 115 (SCN10A; cell membrane chromatography; higher = stronger binding).
`COc1ccc(C)c2sc(NC(=O)c3cc(F)cc(F)c3)nc12` — result for activity: “inactive” (CHRM4; calcium mobilization, positive allosteric modulator; CHO expressing hM4 and Gqi5; concentration not given, with: acetylcholine EC20).
`C[C@@H]1CN(Cc2ccc3c(c2)c(=O)c(C(N)=O)cn3-c2ccc(F)cc2)C[C@H](C)O1`: activity “inactive” (Grm3 (Rattus norvegicus, UniProt P31422); antagonist, calcium mobilization; up to 30 µM, with: glutamate EC80).
With `NS(=O)(=O)c1ccc(N2N=C(C(F)(F)F)C[C@@H]2c2ccc(F)cc2F)cc1` the IC80 was greater than 30000 nM (Cyclooxygenase-2 (Canis lupus familiaris, UniProt Q8SPQ9); PGE2 formation, inhibitor; dog whole blood; 24 h, with: LPS).
For `CSc1ccc(/C=C2/C(C)=C(CC(=O)O)c3cc(F)ccc32)cc1`, IC50 read “inactive” (PDE1A (Homo sapiens, UniProt P54750); cGMP hydrolysis, inhibitor; up to 200 µM).
Under “ΔpEC50 of ACh”, `O=c1cc(-c2ccccc2OCc2ccccc2)ncn1C1CCCCC1O` (stereo not drawn) is recorded as 0.75 ± 0.06 log units (CHRM1; positive allosteric modulator, IP1 accumulation; CHO-M1 cells; 1 µM, 60 min, 37 °C, with: ACh; baseline: ACh alone, higher = stronger potentiation).
With `CIKVAVS` the maximum inhibition was 0% (human polyclonal IgM rheumatoid factor; binding to mAb II-481; peptide; combined CDR peptides, serum MCC).
`O=C(O)[C@H]1O[C@@H](Oc2c(-c3ccc(O)cc3)oc3cc(O)ccc3c2=O)[C@H](O)[C@@H](O)[C@@H]1O` gave a Ksi of 0.86 ± 0.25 µM (UGT1A1 (Homo sapiens, UniProt P22309); glucuronidation, substrate, item: 3,7,4'-trihydroxyflavone glucuronide).
`COC(=O)[C@H](c1ccccc1Cl)N1CCc2sccc2C1` gave a receptor occupancy of 17.3 ± 8.3% (P2Y purinoceptor 12 (P2ry12, Rattus norvegicus, UniProt Q9EPX4); rat; oral, 30 mg/kg).
Under “ΔpEC50 of ACh”, `CC(C)n1cc(-c2ccc(COc3ccccc3-c3cc(=O)n(C4CCCCC4O)cn3)cc2)cn1` (stereo not drawn) is recorded as 1.71 ± 0.33 log units (CHRM1; positive allosteric modulator, IP1 accumulation; CHO-M1 cells; 10 µM, 60 min, 37 °C, with: ACh; baseline: ACh alone, higher = stronger potentiation).
`cardiac troponin I R21C`: binding “no binding” (F1FO-ATP synthase (rat heart); ELISA; concentration not given).
With `C/C1=C2/N[C@H]([C@H](CC(N)=O)[C@@]2(C)CCC(=O)NC[C@@H](C)OP(=O)(O)O[C@H]2[C@@H](O)[C@@H](n3cnc4cc(C)c(C)cc43)O[C@@H]2CO)[C@]2(C)N=C(/C(C)=C3N=C(/C=C4N=C1[C@@H](CCC(N)=O)C\4(C)C)[C@@H](CCC(N)=O)[C@]\3(C)CC(N)=O)[C@@H](CCC(N)=O)[C@]2(C)CC(N)=O.[Co]` the Km was 2.8 ± 0.4 µM (cobA (Limosilactobacillus reuteri, UniProt Q50EJ2, F112H); enzyme activity, substrate; anoxic, Ti(III) citrate reduced, with: ATP).
`O=C(Nc1nc2cccnc2s1)C1CCCC1`: activity “inactive” (CHRM4; calcium mobilization, positive allosteric modulator; CHO expressing hM4 and Gqi5; concentration not given, with: acetylcholine EC20).
`CC(=O)N[C@@H](CC(N)=O)C(=O)NCC(=O)N[C@@H](CCCNC(=N)N)C(=O)NCC(=O)N[C@@H](CC(=O)O)C(=O)N[C@@H](CO)C(=O)N[C@@H](CC(C)C)C(=O)N[C@@H](C)C(=O)N[C@@H](Cc1ccc(O)cc1)C(=O)NCC(=O)N[C@@H](CC(C)C)C(=O)N[C@@H](CCCNC(=N)N)C(=O)N[C@@H](CO)C(=O)N[C@@H](CCCCN)C(=O)N[C@@H](CO)C(=O)N[C@@H](CCCNC(=N)N)C(=O)N[C@@H](CO)C(=O)N[C@@H](Cc1ccccc1)C(=O)N[C@@H](CCC(N)=O)C(=O)N[C@H](C(N)=O)C(C)C` has a cleavage efficiency of 99% and ~99% (MMP9 (Homo sapiens, UniProt P14780); substrate, LC-MS/MS; 24 h, 37 °C, with: peptide to enzyme 20:1 w/w).
`COc1cc2c(cc1OC)CN(CCc1ccc(NC(=O)c3cc(OC)c(OC)cc3NC(=O)c3cnc4ccccc4c3)cc1)CC2` — result for “brain [11C]Ko143 uptake”: “increased” (Abcb1a (Mus musculus, UniProt P21447); inhibitor, PET; wild-type mice; i.v., 15 mg/kg, 2 h before PET, with: [11C]Ko143).
For `O=c1cc(-c2ccccc2OCc2ccc(-c3cn[nH]c3)cc2)ncn1C1CCCCC1O` (stereo not drawn), “change in baseline activity” read 84.3 ± 3.4 (CHRM1; allosteric agonist, IP1 accumulation; CHO-M1 cells; 10 µM, unit not given; baseline: maximum ACh response).
`ARTKQTARKSTGG` gave a methylation conversion of roughly 82% (SETD7 (Homo sapiens, UniProt Q8WTS6); peptide methylation, substrate, MALDI-TOF MS; peptide; 10 µM, 3 h, pH 8.0, 37 °C, enzyme 500 nM, with: SAM 30 µM).
For `COc1ccc(C)c2sc(NC(=O)c3ccc(C)cc3)nc12`, activity read “inactive” (CHRM4; calcium mobilization, positive allosteric modulator; CHO expressing hM4 and Gqi5; concentration not given, with: acetylcholine EC20).
`NC(=NCc1ccccc1)NC(=O)c1nc(Cl)c(N)nc1N` has a current change of 0.87 µA (unc-8 (Caenorhabditis elegans, UniProt Q21974, G387E); ion current, two-electrode voltage clamp; Xenopus oocytes coexpressing MEC-2; 30 µM, -85 mV; baseline: uninjected oocytes, positive = inhibition).
`CNC(=O)c1ccc(COc2ccccc2-c2cc(=O)n(C3CCCCC3O)cn2)cc1` (stereo not drawn) — result for “change in baseline activity”: 88.3 ± 2.9 (CHRM1; allosteric agonist, IP1 accumulation; CHO-M1 cells; 1 µM, unit not given; baseline: maximum ACh response).
With `O=c1ccn([C@H]2C[C@H](O)[C@@H](COP(=O)(O)O)O2)c(=O)[nH]1` the activation constant was 17 ± 4 µM (thyX (Mycobacterium tuberculosis, UniProt P9WG57); oxidase activity, activator; aerobic, no CH2H4folate, with: 200 µM NADPH).
`COc1ccc(COc2ccccc2-c2cc(=O)n(C3CCCCC3O)cn2)cc1` (stereo not drawn) — result for “change in baseline activity”: 49.6 ± 4.2 (CHRM1; allosteric agonist, IP1 accumulation; CHO-M1 cells; 10 µM, unit not given; baseline: maximum ACh response).
`CC(C)C[C@H](N)C(=O)N1CCC[C@@H](NCC(N)=O)C1` has a selectivity ratio of no less than 267 fold (Papain (Carica papaya, UniProt P00784); inhibitor; baseline: Ki papain over Ki IdeS).
Under “change in baseline activity”, `CS(=O)(=O)c1ccc(COc2ccccc2-c2cc(=O)n(C3CCCCC3O)cn2)cc1` (stereo not drawn) is recorded as 11 ± 2.7 (CHRM1; allosteric agonist, IP1 accumulation; CHO-M1 cells; 1 µM, unit not given; baseline: maximum ACh response).
For `C=CC(=O)NCCCC[C@H](NC(=O)OCc1ccccc1)C(=O)N1CCN(C(=O)c2ccccn2)CC1`, the kinact was 0.0488 ± 0.00483 s⁻¹ (TGM2 (Homo sapiens, UniProt P21980); pH 6.5).
`CSc1nc2c([nH]1)c(=S)n(C)c(=S)n2C` has a remaining activity of 107% (PGR (Homo sapiens, UniProt P06401); reporter gene, antagonist, MMTV-luciferase; T47D/A1-2; 10 µM, 24 h, with: 5 nM progesterone; baseline: maximal activity).
For `COC(=O)c1scc(C)c1NC(=O)C(C)N1CCOCC1C` (stereo not drawn), “capacity factor k′” read 15 (SCN10A; cell membrane chromatography; higher = stronger binding).
`N#Cc1c(C(F)(F)F)cc(-c2ccc(Cl)cc2)nc1SCC(=O)Nc1ncccn1` — result for “cAMP production change”: -12.6% (TAAR1 (Homo sapiens, UniProt Q96RJ0); agonist; 10 µM).
For `CC(C)=CCC/C(C)=C/CC/C(C)=C/CC/C(C)=C/CO`, the dehydrogenase activity was 3.3 U/mg (All-trans-retinol dehydrogenase [NAD(+)] ADH7 (Adh7, Rattus norvegicus, UniProt P41682); substrate; 50 µM, pH 7.4, with: 2 mM NAD+).
Under “capacity factor k′”, `COC(=O)c1scc(C)c1NC(=O)C(C)N1CCN(C(C)C)CC1` (stereo not drawn) is recorded as 55 (SCN10A; cell membrane chromatography; higher = stronger binding).
`Nc1nc2c(ncn2[C@@H]2O[C@@H]3COP(=O)(O)O[C@H]4[C@@H](F)[C@H](n5cnc6c(=O)[nH]c(N)nc65)O[C@@H]4COP(=O)(O)O[C@H]3[C@H]2F)c(=O)[nH]1` has a Kd of 5.8 nM (T1, c-di-GMP riboswitch (Clostridium acetobutylicum); competitor, competition gel-shift; 4-24 h, pH 6.8, 22 °C, with: radiolabelled c-di-GMP).
With `O=S(=O)(Oc1ccccc1Cl)C1CC2OC1C(c1ccc(O)cc1)=C2c1ccc(O)cc1` (stereo not drawn) the remaining activity was 86 ± 11% (ESR2; reporter gene, antagonist; HepG2 transfected with ERβ; 10 µM, with: E2; baseline: E2).
The peak current of `Cc1nnsc1C(=O)Nc1ccc(-n2nc(C(F)(F)F)cc2C(F)(F)F)cc1` is reported as -1.54 ± 0.53 pA/pF (TRPC3 (Homo sapiens, UniProt Q13507); TRPC3 receptor-operated current, inhibitor, patch clamp; HEK293 transiently expressing TRPC3; 3 µM, with: carbachol maximal activation).
